Experimental data gathered from unrelated publications.
Protocols differ between the studies behind these lines.
Chain of UniProt P78356 (whole entry, looked up): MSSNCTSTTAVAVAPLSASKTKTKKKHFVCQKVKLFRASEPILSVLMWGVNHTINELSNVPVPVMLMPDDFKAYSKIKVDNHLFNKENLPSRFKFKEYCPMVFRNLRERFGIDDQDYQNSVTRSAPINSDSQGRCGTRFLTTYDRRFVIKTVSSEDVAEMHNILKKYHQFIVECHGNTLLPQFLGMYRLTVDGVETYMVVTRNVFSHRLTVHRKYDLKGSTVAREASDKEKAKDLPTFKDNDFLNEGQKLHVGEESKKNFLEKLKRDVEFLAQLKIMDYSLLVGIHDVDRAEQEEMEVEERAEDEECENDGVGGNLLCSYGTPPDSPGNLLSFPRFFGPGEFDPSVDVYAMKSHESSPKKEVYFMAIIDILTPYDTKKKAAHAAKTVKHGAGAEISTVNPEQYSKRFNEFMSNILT
Chain of UniProt Q13546 (whole entry, looked up): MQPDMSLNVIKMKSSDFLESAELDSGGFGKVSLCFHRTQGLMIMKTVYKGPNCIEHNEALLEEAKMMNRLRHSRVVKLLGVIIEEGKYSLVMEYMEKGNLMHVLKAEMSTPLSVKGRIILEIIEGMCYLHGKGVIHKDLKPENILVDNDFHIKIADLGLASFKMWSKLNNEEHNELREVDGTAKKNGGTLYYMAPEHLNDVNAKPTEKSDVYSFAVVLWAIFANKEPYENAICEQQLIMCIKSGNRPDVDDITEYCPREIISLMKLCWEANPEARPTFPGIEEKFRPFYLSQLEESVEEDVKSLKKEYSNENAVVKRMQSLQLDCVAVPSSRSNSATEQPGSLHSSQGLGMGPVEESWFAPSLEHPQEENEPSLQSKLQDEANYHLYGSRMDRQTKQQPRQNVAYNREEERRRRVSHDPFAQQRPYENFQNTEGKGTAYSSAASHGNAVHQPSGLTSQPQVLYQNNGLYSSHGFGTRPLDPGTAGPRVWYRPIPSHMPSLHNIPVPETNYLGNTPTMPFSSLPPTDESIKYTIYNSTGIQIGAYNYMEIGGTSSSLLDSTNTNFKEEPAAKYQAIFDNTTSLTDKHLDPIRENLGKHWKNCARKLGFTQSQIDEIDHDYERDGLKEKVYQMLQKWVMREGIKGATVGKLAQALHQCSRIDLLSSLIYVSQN
Chain of UniProt Q2M2I8 (whole entry, looked up): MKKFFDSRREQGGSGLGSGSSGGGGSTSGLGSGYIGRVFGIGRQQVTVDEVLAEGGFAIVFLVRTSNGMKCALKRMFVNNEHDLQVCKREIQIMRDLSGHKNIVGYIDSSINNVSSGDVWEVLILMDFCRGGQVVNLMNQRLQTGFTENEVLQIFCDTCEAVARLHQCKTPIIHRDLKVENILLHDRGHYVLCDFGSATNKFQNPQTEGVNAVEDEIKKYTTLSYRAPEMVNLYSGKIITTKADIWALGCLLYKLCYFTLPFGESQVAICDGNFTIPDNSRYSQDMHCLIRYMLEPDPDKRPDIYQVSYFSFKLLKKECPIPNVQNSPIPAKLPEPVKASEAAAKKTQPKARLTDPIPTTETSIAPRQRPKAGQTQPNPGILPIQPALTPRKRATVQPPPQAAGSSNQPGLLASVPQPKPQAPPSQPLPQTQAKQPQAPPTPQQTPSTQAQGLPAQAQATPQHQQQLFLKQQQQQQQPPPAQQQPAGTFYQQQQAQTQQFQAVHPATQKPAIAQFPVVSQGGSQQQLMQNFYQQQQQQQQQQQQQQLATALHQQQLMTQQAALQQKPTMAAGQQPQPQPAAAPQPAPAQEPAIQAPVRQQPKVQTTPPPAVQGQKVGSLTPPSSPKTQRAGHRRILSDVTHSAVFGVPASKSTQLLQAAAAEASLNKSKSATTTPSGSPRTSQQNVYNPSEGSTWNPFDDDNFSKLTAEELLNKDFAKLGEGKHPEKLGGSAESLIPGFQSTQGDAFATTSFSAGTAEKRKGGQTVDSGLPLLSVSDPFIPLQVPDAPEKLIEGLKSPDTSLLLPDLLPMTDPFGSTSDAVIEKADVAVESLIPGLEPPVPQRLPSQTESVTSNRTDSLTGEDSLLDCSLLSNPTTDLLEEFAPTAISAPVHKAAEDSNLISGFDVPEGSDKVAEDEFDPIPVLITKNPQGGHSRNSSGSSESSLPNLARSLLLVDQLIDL
Chain of UniProt Q96Q40 (whole entry, looked up): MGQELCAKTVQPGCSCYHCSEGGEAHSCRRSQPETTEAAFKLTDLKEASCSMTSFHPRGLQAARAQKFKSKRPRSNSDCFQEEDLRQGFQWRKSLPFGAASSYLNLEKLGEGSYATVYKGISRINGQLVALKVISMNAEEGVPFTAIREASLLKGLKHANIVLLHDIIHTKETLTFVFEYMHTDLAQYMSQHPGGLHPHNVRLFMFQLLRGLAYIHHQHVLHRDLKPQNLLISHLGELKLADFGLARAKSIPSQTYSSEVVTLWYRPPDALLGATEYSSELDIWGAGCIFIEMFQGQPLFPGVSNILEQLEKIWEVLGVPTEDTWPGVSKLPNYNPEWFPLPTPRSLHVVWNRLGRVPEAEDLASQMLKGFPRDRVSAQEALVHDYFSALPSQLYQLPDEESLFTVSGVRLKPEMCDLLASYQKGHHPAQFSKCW

O=c1ccc2nc3ccc(OCc4ccc([N+](=O)[O-])o4)cc3oc-2c1
MIC (Enterobacter cloacae; microbial growth; 24 h): > 32 µg/mL

O=c1c2ccccc2nc(/C=C/C2CCCCC2)n1-c1cccc(O)c1
MIC (Enterococcus faecium; microbial growth, broth dilution; NCTC7171): > 128 µg/mL

O=c1ccc2nc3ccc(O)cc3oc-2c1
MIC (Serratia marcescens; microbial growth; 24 h): > 32 µg/mL

COC(=O)c1cc(-c2cccc(NC(=S)NC3CCCCC3)c2)on1
MIC (Mycobacteroides abscessus; microbial growth, broth dilution; ATCC19977; 48 h): > 64 µg/mL

[2H]c1c([2H])c([C@]2([2H])CCCN2C(=O)C(C)(C)Oc2ccc3cn[nH]c3c2)c([2H])c([2H])c1C([2H])([2H])[2H]
remaining binding (CDK15 (Homo sapiens, UniProt Q96Q40); binding, competition with immobilised ligand; 1 µM): 72%

Nc1ncc(-c2nc(N3CCOCC3)nc(N3CCOCC3)n2)c(C(F)F)n1
remaining binding (AAK1 (Homo sapiens, UniProt Q2M2I8); binding, competition with immobilised ligand; 10 µM): 62%

CC(C)[C@H]1NC(=O)[C@H](Cc2ccccc2)NC(=O)CNC(=O)[C@@H](Cc2ccccc2)NC(=O)[C@H](CCC(N)=O)NC(=O)[C@@H](CCCN)NC1=O
IC90 (Balamuthia mandrillaris; parasite growth, ATP luminescence): > 16 µg/mL

COc1ncccc1-c1cnn2ccc(N3CCN(C(=O)OC(C)C)CC3)nc12
remaining binding (RIPK1 (Homo sapiens, UniProt Q13546); binding, competition with immobilised ligand; 1 µM): 99%

COc1ccc(-c2oc3ccc(O)c(CN4CCCCC4)c3c2C(=O)NCc2cn(Cc3ccccc3)nn2)cc1
MIC (Mycolicibacterium smegmatis; microbial growth; MC2155; 72 h): 39.2 µM

O=c1c2ccccc2nc(/C=C/c2ccc(O)cc2)n1-c1cccc(O)c1
MIC (Enterococcus faecium; microbial growth, broth dilution; NCTC7171): > 128 µg/mL

CC(C)[C@@H]1NC(=O)[C@@H](CCCN)NC(=O)[C@H]([C@@H](C)O)NC(=O)[C@@H](CCCN)NC(=O)[C@H](Cc2ccccc2)NC(=O)[C@@H](C)NC(=O)[C@@H](C(C)C)NC(=O)[C@@H](C)NC(=O)[C@H](Cc2c[nH]c3ccccc23)NC(=O)[C@@H](Cc2c[nH]c3ccccc23)NC1=O
IC90 (Balamuthia mandrillaris; parasite growth, ATP luminescence): > 16 µg/mL

COC(=O)c1cc(-c2cccc(NC(=O)Nc3cccc(F)c3)c2)on1
MIC (Mycobacteroides abscessus; microbial growth, broth dilution; ATCC19977; 48 h): > 64 µg/mL

Oc1c(Cl)cc(Cl)cc1-c1[nH]c(Cl)c(Cl)c1Cl
MIC (Staphylococcus epidermidis; microbial growth; ATCC14990): 0.13 µM

CCOC(=O)c1c(-c2ccc(OC)cc2)oc2ccc(OCc3cn(Cc4ccccc4)nn3)c(CN3CCCCC3)c12
MIC (Mycolicibacterium smegmatis; microbial growth; MC2155; 72 h): 37.4 µM

C[C@@H](O)[C@H]1C(=O)N2C(C(=O)O)=C(S[C@@H]3CN[C@H](C(=O)N(C)C)C3)[C@H](C)[C@H]12
MIC (Acinetobacter baumannii; microbial growth; NCTC13304; drug-resistant strain): > 8 µg/mL

Cc1nn(C)cc1-c1nc2c(N3CCN(Cc4ccc(Cl)cc4)CC3)c(Cl)cnc2[nH]1
remaining binding (PIP4K2B (Homo sapiens, UniProt P78356); binding, competition with immobilised ligand; 1 µM): 28%

O=C(Nc1cccc(-c2cc(C(=O)O)no2)c1)Nc1ccc(Cl)c(Cl)c1
MIC (Mycobacteroides abscessus; microbial growth, broth dilution; ATCC19977; 48 h): > 64 µg/mL

N.N.[Cl][Pt][Cl]
IC50 (JVM-3; cell growth or viability, ATP luminescence; 72 h): 600 nM

C#CC[N+]1(CC)CCc2c(sc(NC(=O)c3c(F)c(F)c(F)c(F)c3F)c2C(=O)OCC)C1 (centres unmarked)
MIC (Mycolicibacterium smegmatis; microbial growth; MC2155; 72 h): 1.8 µM

COC(=O)c1cc(-c2cccc(NC(=O)Nc3ccccc3C)c2)on1
MIC (Mycobacteroides abscessus; microbial growth, broth dilution; ATCC19977; 48 h): > 64 µg/mL

Oc1c(Br)cc(Br)cc1-c1[nH]c(Br)c(Br)c1Br
MIC (Staphylococcus epidermidis; microbial growth; ATCC14990): 0.25 µM

CCOC(=O)c1c(-c2ccc(OC)cc2)oc2ccc(OCc3cn(C[C@H]4O[C@H](O[C@H]5O[C@H](CO)[C@@H](O)[C@H](O)[C@H]5O)[C@H](O)[C@@H](O)[C@@H]4O)nn3)c(CN3CCCCC3)c12
MIC (Mycolicibacterium smegmatis; microbial growth; MC2155; 72 h): 102 µM

COC(=O)c1cc(-c2cccc(NC(=S)Nc3ccc(C)cc3)c2)on1
MIC (Mycobacteroides abscessus; microbial growth, broth dilution; ATCC19977; 48 h): > 64 µg/mL
